{"data": "Measurements gathered from unrelated publications", "note": "Each numbered part is a random draw from the data of one study; scales do not carry over between parts.", "sequence of UniProt Q96P67 (whole entry, looked up)": "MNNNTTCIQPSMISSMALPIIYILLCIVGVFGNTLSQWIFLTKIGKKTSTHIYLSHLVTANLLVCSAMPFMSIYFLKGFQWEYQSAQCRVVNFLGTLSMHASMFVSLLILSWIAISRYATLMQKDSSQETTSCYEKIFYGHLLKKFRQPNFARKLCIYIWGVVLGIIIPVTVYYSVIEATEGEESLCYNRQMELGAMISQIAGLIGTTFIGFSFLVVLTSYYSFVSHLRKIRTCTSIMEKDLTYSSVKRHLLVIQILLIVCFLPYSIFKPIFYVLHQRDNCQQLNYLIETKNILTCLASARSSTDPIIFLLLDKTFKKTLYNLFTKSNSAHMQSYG", "sequence of UniProt P51956 (whole entry, looked up)": "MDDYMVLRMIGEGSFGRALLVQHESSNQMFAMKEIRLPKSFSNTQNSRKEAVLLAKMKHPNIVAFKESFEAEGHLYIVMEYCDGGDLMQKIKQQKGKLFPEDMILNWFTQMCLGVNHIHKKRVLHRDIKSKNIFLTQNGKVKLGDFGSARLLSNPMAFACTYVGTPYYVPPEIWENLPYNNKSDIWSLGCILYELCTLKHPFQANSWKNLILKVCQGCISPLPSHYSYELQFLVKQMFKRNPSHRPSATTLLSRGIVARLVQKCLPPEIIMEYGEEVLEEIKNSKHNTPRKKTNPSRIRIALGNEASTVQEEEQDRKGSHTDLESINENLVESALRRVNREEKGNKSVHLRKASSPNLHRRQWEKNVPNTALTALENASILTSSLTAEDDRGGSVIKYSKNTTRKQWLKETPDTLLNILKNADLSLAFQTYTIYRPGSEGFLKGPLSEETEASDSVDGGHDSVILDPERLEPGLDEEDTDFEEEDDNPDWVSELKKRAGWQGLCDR", "sequence of UniProt Q86Y34 (whole entry, looked up)": "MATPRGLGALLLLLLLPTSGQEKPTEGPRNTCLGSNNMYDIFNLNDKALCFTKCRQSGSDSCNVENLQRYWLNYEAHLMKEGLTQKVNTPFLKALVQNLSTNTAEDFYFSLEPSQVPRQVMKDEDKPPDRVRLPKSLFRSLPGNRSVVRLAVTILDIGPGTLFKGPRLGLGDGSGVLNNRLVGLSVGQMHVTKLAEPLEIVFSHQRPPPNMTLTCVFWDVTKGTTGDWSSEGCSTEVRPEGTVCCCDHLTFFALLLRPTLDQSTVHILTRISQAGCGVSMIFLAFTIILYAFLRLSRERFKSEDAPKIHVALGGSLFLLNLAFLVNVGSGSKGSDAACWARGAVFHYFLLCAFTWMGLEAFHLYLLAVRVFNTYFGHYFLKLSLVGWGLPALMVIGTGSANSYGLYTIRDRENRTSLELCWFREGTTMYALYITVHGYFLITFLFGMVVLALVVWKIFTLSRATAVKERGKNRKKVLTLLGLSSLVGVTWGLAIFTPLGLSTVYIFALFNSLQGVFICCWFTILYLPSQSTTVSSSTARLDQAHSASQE", "sequence of UniProt P00519 (whole entry, unmodified, looked up)": "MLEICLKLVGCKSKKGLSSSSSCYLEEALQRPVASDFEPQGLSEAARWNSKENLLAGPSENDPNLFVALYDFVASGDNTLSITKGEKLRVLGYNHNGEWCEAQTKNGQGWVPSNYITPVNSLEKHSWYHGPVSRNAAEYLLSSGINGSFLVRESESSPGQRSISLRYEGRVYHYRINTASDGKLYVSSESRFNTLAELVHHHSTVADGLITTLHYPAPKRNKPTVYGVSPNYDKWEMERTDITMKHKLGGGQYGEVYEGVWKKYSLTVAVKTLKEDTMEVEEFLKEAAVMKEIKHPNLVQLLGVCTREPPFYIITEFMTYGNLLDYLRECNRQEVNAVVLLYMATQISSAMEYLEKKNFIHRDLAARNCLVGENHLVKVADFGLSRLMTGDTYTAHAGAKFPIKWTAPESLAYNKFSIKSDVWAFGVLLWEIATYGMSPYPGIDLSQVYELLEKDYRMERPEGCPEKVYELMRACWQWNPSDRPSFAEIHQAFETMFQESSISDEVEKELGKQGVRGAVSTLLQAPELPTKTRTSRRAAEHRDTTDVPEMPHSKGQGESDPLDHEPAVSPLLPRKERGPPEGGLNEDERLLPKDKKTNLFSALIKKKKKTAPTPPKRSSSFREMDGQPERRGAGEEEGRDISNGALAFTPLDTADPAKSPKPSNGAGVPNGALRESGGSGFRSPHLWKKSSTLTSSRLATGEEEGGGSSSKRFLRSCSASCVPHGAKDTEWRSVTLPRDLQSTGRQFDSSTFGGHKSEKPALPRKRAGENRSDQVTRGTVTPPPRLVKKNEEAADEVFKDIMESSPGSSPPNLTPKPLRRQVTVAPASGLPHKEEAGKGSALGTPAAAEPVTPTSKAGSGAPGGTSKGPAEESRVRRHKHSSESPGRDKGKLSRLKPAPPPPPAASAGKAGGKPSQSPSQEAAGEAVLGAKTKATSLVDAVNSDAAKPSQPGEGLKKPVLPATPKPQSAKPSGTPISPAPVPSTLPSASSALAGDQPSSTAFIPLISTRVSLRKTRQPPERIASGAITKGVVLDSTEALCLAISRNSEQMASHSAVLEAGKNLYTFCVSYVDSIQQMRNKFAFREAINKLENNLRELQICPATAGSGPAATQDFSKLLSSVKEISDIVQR", "sequence of UniProt P46089 (whole entry, looked up)": "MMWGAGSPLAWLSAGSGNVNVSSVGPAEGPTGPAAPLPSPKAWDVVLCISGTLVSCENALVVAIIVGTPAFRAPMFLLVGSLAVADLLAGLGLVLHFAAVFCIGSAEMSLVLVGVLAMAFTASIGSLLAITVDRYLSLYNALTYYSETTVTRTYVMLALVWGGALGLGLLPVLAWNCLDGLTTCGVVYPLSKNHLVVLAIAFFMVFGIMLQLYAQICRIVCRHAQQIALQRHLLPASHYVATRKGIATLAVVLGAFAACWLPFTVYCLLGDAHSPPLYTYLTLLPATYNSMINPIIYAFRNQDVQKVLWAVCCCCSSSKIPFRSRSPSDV", "sequence of UniProt Q14289 (whole entry, looked up)": "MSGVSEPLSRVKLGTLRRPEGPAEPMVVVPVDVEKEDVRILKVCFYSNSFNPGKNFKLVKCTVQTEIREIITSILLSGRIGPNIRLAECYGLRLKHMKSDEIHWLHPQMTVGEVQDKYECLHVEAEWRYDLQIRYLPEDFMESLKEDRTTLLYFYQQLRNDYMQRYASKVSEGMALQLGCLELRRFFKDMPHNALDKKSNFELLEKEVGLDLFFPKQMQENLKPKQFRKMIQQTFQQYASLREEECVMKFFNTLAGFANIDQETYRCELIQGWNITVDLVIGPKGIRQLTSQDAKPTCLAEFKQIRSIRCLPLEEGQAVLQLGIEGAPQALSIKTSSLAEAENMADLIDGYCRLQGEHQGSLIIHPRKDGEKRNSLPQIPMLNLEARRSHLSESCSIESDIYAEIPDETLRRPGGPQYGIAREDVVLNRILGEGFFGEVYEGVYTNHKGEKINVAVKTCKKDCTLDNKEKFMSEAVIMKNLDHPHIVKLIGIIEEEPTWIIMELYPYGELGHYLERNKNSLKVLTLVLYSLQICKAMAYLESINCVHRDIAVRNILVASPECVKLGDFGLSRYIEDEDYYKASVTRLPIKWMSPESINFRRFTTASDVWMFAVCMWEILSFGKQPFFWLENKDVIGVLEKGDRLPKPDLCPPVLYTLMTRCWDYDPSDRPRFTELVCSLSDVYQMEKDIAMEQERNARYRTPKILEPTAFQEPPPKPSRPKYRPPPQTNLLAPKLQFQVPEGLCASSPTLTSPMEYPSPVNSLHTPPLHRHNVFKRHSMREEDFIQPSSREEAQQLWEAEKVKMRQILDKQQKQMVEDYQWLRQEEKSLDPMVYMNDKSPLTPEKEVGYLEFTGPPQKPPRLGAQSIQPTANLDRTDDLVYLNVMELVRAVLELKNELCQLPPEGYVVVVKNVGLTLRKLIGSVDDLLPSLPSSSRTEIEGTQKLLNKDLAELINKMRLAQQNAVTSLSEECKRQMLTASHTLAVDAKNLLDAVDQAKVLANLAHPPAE", "sequence of UniProt P48039 (whole entry, looked up)": "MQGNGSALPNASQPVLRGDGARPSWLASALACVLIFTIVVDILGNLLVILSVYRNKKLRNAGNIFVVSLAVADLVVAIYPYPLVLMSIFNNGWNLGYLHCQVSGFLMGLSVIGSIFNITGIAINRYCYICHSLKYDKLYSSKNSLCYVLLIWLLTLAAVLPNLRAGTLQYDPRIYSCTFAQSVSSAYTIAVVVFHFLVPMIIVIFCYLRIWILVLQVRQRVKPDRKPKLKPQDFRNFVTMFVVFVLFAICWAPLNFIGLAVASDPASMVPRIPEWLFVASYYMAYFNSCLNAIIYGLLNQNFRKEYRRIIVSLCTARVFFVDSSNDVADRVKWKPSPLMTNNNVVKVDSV", "sequence of UniProt P0DMS8 (whole entry, looked up)": "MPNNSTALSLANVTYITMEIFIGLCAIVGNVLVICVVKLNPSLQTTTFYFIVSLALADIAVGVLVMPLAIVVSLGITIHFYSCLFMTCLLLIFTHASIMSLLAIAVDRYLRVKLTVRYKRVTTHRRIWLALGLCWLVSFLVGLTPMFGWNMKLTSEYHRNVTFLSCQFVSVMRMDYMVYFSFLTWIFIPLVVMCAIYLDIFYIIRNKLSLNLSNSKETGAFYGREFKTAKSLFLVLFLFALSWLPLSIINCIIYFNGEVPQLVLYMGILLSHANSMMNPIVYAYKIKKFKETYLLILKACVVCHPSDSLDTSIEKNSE"}
{"data": "Block 1", "SMILES": "C[C@H]1CC[C@H](n2c3cnccc3c3cnc(Nc4ccc5c(n4)CCN(C(=O)CO)C5)nc32)CC1", "read-out": "cell-free assay", "tested at": "1 µM"}
{"target": "FLT3 (Homo sapiens, UniProt P36888, K663Q)", "remaining signal": "1.2%"}
{"target": "ABL1 (Homo sapiens, UniProt P00519, T315I)", "remaining signal": "68%"}
{"target": "EIF2AK1 (Homo sapiens, UniProt Q9BQI3)", "remaining signal": "100%"}
{"target": "PKN2 (Homo sapiens, UniProt Q16513)", "remaining signal": "40%"}
{"target": "FGFR3 (Homo sapiens, UniProt P22607, G697C)", "remaining signal": "76%"}
{"target": "PTK2B (Homo sapiens, UniProt Q14289)", "remaining signal": "70%"}
{"data": "Block 2", "SMILES": "N=C(N)NC(=O)c1cnn(-c2cccc3ncccc23)c1C1CC1", "read-out": "β-arrestin recruitment", "action": "agonist", "method": "PRESTO-Tango", "tested at": "10 µM", "relative to": "untreated"}
{"target": "GPR65 (Homo sapiens, UniProt Q8IYL9)", "fold over basal": 0.78}
{"target": "ADORA3 (Homo sapiens, UniProt P0DMS8)", "fold over basal": 1.55}
{"target": "MTNR1A (Homo sapiens, UniProt P48039)", "fold over basal": 0.94}
{"target": "ADGRG3 (Homo sapiens, UniProt Q86Y34)", "fold over basal": 1.42}
{"target": "FPR1 (Homo sapiens, UniProt P21462)", "fold over basal": "0.88 fold"}
{"target": "Probable G-protein coupled receptor 82 (GPR82, Homo sapiens, UniProt Q96P67)", "fold over basal": 1.2}
{"target": "GPR3 (Homo sapiens, UniProt P46089)", "fold over basal": 1.08}
{"target": "BDKRB1 (Homo sapiens, UniProt P46663)", "fold over basal": 1.55}
{"target": "AGTR1 (Homo sapiens, UniProt P30556)", "fold over basal": 0.79}
{"data": "Block 3", "target": "Cyclin-dependent kinase 6, with cyclin D1 (CDK6, Homo sapiens, UniProt Q00534)", "read-out": "enzyme activity", "action": "inhibitor", "tested at": "0.5 µM", "relative to": "control", "sequence of UniProt Q00534 (whole entry, looked up)": "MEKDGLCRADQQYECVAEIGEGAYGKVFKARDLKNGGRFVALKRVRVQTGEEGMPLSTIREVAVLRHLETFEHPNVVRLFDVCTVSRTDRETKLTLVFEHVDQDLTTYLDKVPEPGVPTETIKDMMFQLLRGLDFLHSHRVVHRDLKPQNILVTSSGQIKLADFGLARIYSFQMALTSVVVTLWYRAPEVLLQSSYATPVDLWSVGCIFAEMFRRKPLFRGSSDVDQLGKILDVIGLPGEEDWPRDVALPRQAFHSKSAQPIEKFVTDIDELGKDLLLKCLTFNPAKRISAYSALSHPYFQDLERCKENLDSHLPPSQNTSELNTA"}
{"SMILES": "Cc1nc(-c2ccccc2)c(-c2ccncc2)o1", "remaining activity": "101%"}
{"SMILES": "C#Cc1cccc(Nc2ncnc3cc(OCCOC)c(OCCOC)cc23)c1", "remaining activity": "98.7%"}
{"SMILES": "O=C1NC(=O)C(c2cn(CCCO)c3ncccc23)=C1c1cnccn1", "remaining activity": "83.4%"}
{"SMILES": "CNC(=O)c1cc(Oc2ccc(NC(=O)Nc3ccc(Cl)c(C(F)(F)F)c3)cc2)ccn1", "remaining activity": "91.8%"}
{"SMILES": "O=C(Nc1cccc(Nc2cc(Nc3cccc(C(F)(F)F)c3)ncn2)c1)C1CC1", "remaining activity": "99.1%"}
{"SMILES": "Nc1[nH]nc2nc3ccccc3nc12", "remaining activity": "105%"}
{"SMILES": "COc1cc2nccc(Oc3ccc(NC(=S)NC(=O)c4ccccc4C)cc3)c2cc1OC", "remaining activity": "87.1%"}
{"SMILES": "Cn1sc(=O)n(Cc2ccccc2)c1=O", "remaining activity": "106%"}
{"SMILES": "N#CC(C#N)=C(N)/C(C#N)=C/c1ccc(O)cc1", "remaining activity": "91.3%"}
{"SMILES": "O=C(O)c1ccc2c3c1cccc3c(=O)n1c3ccccc3nc21", "remaining activity": "90.6%"}
{"SMILES": "OCC(O)CCON=C1C(c2c(O)[nH]c3ccccc23)=Nc2ccccc21 (stereo not shown)", "remaining activity": "27.7%"}
{"SMILES": "O=S(=O)(c1cccc2cnccc12)N1CCCNCC1", "remaining activity": "86.4%"}
{"SMILES": "Cc1ccc(Nc2nccc(N(C)c3ccc4c(C)n(C)nc4c3)n2)cc1S(N)(=O)=O", "remaining activity": "96.5%"}
{"SMILES": "CCOC(=O)c1c(C)[nH]c(/C=C2\\C(=O)Nc3ccccc32)c1C", "remaining activity": "89.7%"}
{"SMILES": "O=C1NC(=O)C(c2cn(CCCn3ccnc3)c3ccccc23)=C1Nc1ccccc1", "remaining activity": "83.1%"}
{"SMILES": "Cc1cccc(-c2[nH]c(C(C)(C)C)nc2-c2ccc3c(c2)OCO3)n1", "remaining activity": "95.2%"}
{"data": "Block 4", "Structure (SMILES)": "O=C(Nc1cccnn1)N1CC(C/C=C/c2cncc(Oc3ccc(C(F)(F)F)cn3)n2)C1", "read-out": "cell-free assay", "method": "competition with immobilised ligand", "tested at": "1 µM"}
{"target": "ACVR1B (Homo sapiens, UniProt P36896)", "remaining binding": "79%"}
{"target": "DMPK (Homo sapiens, UniProt Q09013)", "remaining binding": "100%"}
{"target": "NEK3 (Homo sapiens, UniProt P51956)", "remaining binding": "100%"}
{"target": "MAP3K6 (Homo sapiens, UniProt O95382)", "remaining binding": "60%"}
{"target": "PIK3CA (Homo sapiens, UniProt P42336, E542K)", "remaining binding": "88%"}
{"target": "EPHA8 (Homo sapiens, UniProt P29322)", "remaining binding": "100%"}
{"note": "Repeated from above (block 4):"}
{"target": "ACVR1B (Homo sapiens, UniProt P36896)", "remaining binding": "79%"}
{"target": "DMPK (Homo sapiens, UniProt Q09013)", "remaining binding": "100%"}
{"target": "NEK3 (Homo sapiens, UniProt P51956)", "remaining binding": "100%"}
